Published values pooled from the literature.
Lines come from different studies, so protocols differ. ± gives the spread as reported.
Cell line: NIH3T3

SMILES	assay	setting	IC50
CN1CCN(C(=O)c2ccc(-c3ccc4c(c3)/C(=C/c3ccc(N5CCNCC5)cc3)C(=O)N4)cc2)CC1	cell growth or viability, WST-1	48 h	1.58 µM
CC(C)c1cccc(C(C)C)c1N=C1[O][Ir]([Cl])[n+]2ccccc21.Cc1c(C)c(C)[c-](C)c1C	cell growth or viability, SRB	24 h	> 200 µM
O=C1Nc2ccc(-c3ccc(C(=O)N4CCCC4)cc3)cc2/C1=C/c1ccc(N2CCNCC2)cc1	cell growth or viability, WST-1	48 h	0.18 µM
Cc1ccc(=O)n(-c2ccc(NC(=O)[C@H](C)N(C)C)cc2)c1	cell growth or viability, CCK-8		246 µM
CN1CCN(c2ccc(/C=C3\C(=O)Nc4ccc(-c5ccc(-c6ccc(O)cc6)cc5)cc43)cc2)CC1	cell growth or viability, WST-1	48 h	18.7 µM
C[C@@H](C(=O)Nc1ccc(Cn2cc(C(F)(F)F)ccc2=O)cc1)N(C)C	cell growth or viability, CCK-8		310 µM
Oc1ccc(-c2csc(Cc3ccccc3)n2)c(O)c1	cell growth or viability, resazurin	72 h	13.9 µM
Cc1c(C)c(C)[c-](C)c1C.Cc1cccc(C)c1[N]1C(=O)c2cccc[n+]2[Ir]1[Cl]	cell growth or viability, SRB	24 h	45 µM
O=C1/C(=C/c2ccc(B(O)O)cc2)CC/C1=C\c1ccc(B(O)O)cc1	cytotoxicity, MTT	24 h	> 250 µM
CO[C@H]1N(OC)c2ccccc2[C@@]12CN=C(Nc1cc(C(F)(F)F)cc(C(F)(F)F)c1)S2 (relative stereo)	cell viability, MTS	72 h	60.6 ± 3.35 µM

Excerpt of the above:
SMILES	assay	setting	IC50
CN1CCN(c2ccc(/C=C3\C(=O)Nc4ccc(-c5ccc(-c6ccc(O)cc6)cc5)cc43)cc2)CC1	cell growth or viability, WST-1	48 h	18.7 µM
